Assay results pooled from the literature.
Each numbered part is a random draw from the data of one study; scales do not carry over between parts. Positions count from the first letter of the parent shown.

Series 1
Target: ABI1, truncated, D143A, DHFR fusion (Arabidopsis thaliana)
Technique: DHFR PCA, deep sequencing
Medium: yeast
Setting: methotrexate growth selection, single substitutions
Together with: (+)-ABA 4.8 µM
Relative to: wild-type fitted maximum
Direction: higher = stronger binding
Endpoint: relative binding score
Starting sequence: PYL1, truncated, DHFR fusion (Arabidopsis thaliana); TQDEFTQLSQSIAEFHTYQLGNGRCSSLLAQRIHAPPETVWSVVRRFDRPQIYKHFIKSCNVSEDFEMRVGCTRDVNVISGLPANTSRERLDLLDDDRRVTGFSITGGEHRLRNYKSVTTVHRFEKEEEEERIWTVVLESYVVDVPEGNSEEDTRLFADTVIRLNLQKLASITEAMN; partner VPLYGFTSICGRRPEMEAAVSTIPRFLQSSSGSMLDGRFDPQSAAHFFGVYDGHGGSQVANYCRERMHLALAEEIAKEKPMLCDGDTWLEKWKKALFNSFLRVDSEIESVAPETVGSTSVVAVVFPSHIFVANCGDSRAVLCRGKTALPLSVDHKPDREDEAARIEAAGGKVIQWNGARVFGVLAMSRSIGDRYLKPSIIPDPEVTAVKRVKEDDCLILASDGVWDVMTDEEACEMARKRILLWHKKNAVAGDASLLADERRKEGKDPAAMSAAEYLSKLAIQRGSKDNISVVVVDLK
P50D: -11.4%
E131S: 82.2%
D75I: 81.9%
G23T: 38.4%
E14C: 26.5%
N77W: 63.2%
N77P: 4.3%
M68W: 20%
N77S: 82%
S171F: 63.2%
D144G: 4.24%
F5A: 60.5%
G102C: -1.82%
N165D: 10.4%
M68K: 7.07%
R90I: 27.1%
E4D: 70.9%
V62T: 57.8%
S117R: -11.9%
D92E: 44.2%
R99P: -7.11%
F5G: 48.4%
N22G: 72.1%
F15C: 17.5%
V100G: -11.5%

Series 2
Target: UBE2H UBC core domain (UniProt P62256)
Sequence of UniProt P62256 (whole entry, looked up): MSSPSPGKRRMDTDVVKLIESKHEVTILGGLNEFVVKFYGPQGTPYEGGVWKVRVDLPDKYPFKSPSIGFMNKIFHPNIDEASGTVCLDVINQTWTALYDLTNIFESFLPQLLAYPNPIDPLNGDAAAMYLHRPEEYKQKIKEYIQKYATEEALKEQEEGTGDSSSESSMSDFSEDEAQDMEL
Technique: yeast two-hybrid
Medium: yeast
Setting: mostly zero background
Relative to: not given
Direction: higher = stronger interaction
Endpoint: lacZ reporter activity
B1: TRIM69 RING domain (UniProt Q86WT6); chain VIQDITMELHCPLCNDWFRDPLMLSCGHNFCEACIQDFWRLQAKETFCPECKMLCQYNNCTF
B2: MID1 RING domain (UniProt O15344); chain METLESELTCPICLELFEDPLLLPCAHSLCFNCAHRILVSHCATNESVESITAFQCPTCRHVITLSQRGL
B3: TRIM8 RING domain (UniProt Q9BZR9); chain WKNCFEEELICPICLHVFVEPVQLPCKHNFCRGCIGEAWAKDSGLVRCPECNQAYNQKPGLE
B4: PHF21A RING domain (UniProt Q96BD5); chain SPTSTDGDIHEDFCSVCRKSGQLLMCDTCSRVYHLDCLDPPLKTIPKGMWICPRCQDQMLKKEEAIPW
B5: UHRF2 RING domain (UniProt Q96PU4); chain CGGDPEKKCHSCSCRVCGGKHEPNMQLLCDECNVAYHIYCLNPPLDKVPEEEYWYCPSCKTDSSEVVKAGER
RLTMMWEEVTCPICLDPFVEPVSIECGHSFCQECISQVGKGGGSVCPVCRQRFLLKNLRP (TRIM21 RING domain (UniProt P19474)): 0
B1 (TRIM69 RING domain): 0
KTLSRFGIQPCSICLGDAKDPVCLPCDHVHCLRCLRAWFASEQMICPYCLTALPDEFSPA (RNF213 RING domain (UniProt Q63HN8)): 0
EDEVSDNSAECVVCLSDVRDTLILPCRHLCLCNTCADTLRYQANNCPICRLPFRALLQIR (RNF157 RING domain (UniProt Q96PX1)): 0
VTLSLTLPITCHICLGKVRQPVICINNHVFCSICIDLWLKNNSQCPACRVPITPENPCK (OBI1 RING domain (UniProt Q5W0B1)): 0
FASPPDSNFVCSVCHGVLKRPARLPCSHIFCKKCILRWLARQKTCPCCRKEVKRKKVVH (RNF151 RING domain (UniProt Q2KHN1)): 0
QHHELTSLFECPVCFDYVLPPILQCQAGHLVCNQCRQKLSCCPTCRGALTPSIRNL (SIAH2 RING domain (UniProt O43255)): 0
B2 (MID1 RING domain): 0
QLRRLQEERTCKVCMDKEVSVVFIPCGHLVVCQECAPSLRKCPICRGIIKGTVRTF (BIRC2 RING domain (UniProt Q13490)): 0
B3 (TRIM8 RING domain): 0
B4 (PHF21A RING domain): 0
B5 (UHRF2 RING domain): 0

Series 3
Target: XBP1, bZIP domain (human)
Technique: DHFR protein complementation
Medium: yeast
Setting: single substitutions, most at no-binding floor
Relative to: wild-type JUN-FOS pair
Direction: higher = stronger binding
Endpoint: binding fitness
Starting sequence: JUN, bZIP domain (human); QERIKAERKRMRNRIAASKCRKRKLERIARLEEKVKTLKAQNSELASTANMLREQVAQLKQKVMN; partner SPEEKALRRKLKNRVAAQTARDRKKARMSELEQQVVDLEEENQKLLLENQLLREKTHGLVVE
L31W: -1.34 natural log
A40S: -0.976 natural log
K34W: -1.34 natural log
L52A: -1.49 natural log
Q58R: -0.719 natural log
K39R: -0.554 natural log
K36P: -1.5 natural log
A57R: -1.17 natural log
L52I: -1.32 natural log
V35S: -1.44 natural log
L31V: -1.33 natural log
Q58S: -0.706 natural log
E32H: -1.42 natural log
N42P: -1.44 natural log

Series 4
Target: CCNA1, cyclin fold, Cln2 fusion (human)
Technique: yeast growth competition, sequencing
Medium: yeast
Setting: weak parent motif
Relative to: not given
Direction: higher = stronger binding
Endpoint: normalised enrichment score
Starting sequence: RBL1 docking peptide (human); GSAKRRLFGEDPP; partner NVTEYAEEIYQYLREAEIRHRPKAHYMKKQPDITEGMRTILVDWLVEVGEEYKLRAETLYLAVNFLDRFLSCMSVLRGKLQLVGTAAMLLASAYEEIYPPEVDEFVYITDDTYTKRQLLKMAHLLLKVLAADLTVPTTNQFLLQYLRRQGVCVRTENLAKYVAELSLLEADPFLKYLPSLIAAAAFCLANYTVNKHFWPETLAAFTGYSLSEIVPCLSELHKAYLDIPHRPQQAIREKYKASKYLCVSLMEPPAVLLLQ
S2H: 0.574
L7V: 0.663
S2E: 0.496
E10R: 0.465
L7K: 0.247
F8G: 0.189
F8R: 0.195
K4W: 0.185
G9S: 0.502
R6K: 0.642
P12A: 0.519
P12E: 0.738
P12H: 0.356
F8I: 0.0652
K4M: 0.256
S2I: 0.463
P13L: 1.06
R5I: 0.0777
G9Y: 0.4

Series 5
Target: RNA binding protein fox-1 homolog 2, RRM domain, GST-SBP tag (RBFOX2, Homo sapiens, UniProt O43251-10, residues 100-194)
Technique: RNA Bind-n-Seq
Form: RNA
Medium: in vitro
Concentration: 365 nM
Setting: natural RNA segment, single round, ends assumed
Relative to: no-protein control
Direction: higher = stronger binding
Endpoint: RBNS enrichment (R)
All sequences stand within: GGGAGUUCUACAGUCCGACGAUC … UGGAAUUCUCGGGUGCCAA
Construct (chain): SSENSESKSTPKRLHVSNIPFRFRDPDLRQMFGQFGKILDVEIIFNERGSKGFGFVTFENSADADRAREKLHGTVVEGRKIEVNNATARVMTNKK
UGGGGCACCGCACUUUGUAAAGGGUGAUGGUGGACCCCUUCCCUUACUUUCAGGUCUGGAGUCUUCAGAUCUCUUCCUUGAGGCGGCCAGGGAGAGGAAGUCUCGCUCUC: 0.269
GAAGCCAUUUUUCUUUUAGAUGAAAAGCAUUCUGUGUGAUUGUUGUAUAAUAAAUUGAUUUUUACACAAAACAUCUUGCAACUUUUCUUAUUUGGUUCAAAGAAACUAAA: 0.777
CUCCUCCCUUCAGACCCAUCAUUGAGAACAAAUGUAAGAAAUCCCUUCCCACCACCCUCCCUGCCUCCCAGGCCCUCUGCGGGGGAAACAAGAUCACCCAGCAUCCUUCC: 0.729
AGGUCACAUGUAUAAAAUUAGCUUUUGUGUAUGUAUACCGUUUAAAGGAUUCCCCCACCCCCACUCCAGGGGGAAAAAAGGAAGUAUCAUACUAUUGAGAGAGAAGUUAU: 0.625
UAUAGAUCUCCACUACACUCCAGAAGCCCAUCCCUAGUCUCCAAAGCCCUGCCUCUGGGCAACUCGCUCAACUCUUGUCCACUAUUAGCUGUGGGCAGUGGAGGCAGAUA: 0.171
GUGUUCUUUGAUUUAUAAUCCUUGUUUGCUCAAUAAAAAGAAAAAAUAAUUUGAUUCAUUUGCCCUCUUUGGUCUGUUUAUGGUUCUUUCUUUUUCUAAAAUUUAUUUAU: 1.3
AUGAGCCCCAACACUGCCCGCCUUACCGCCGCUGCCCCGCCCAUCACCAUCACCACUAACCCCGCCCUGCGGGCACCAGGAGGCCUGAGCCUCGGUUUGCCCAGGCCCCU: 0.451
CUGAAGAACAGUACUCCACAAACAUGGGUGGUAACAAGAGUUCCAUCCCAGGAGGCCAAACGGUGCAACAGAAGGGUAGGUUAGAUGCUAUUAAGAAGGCACUUAAUAGU: 0.498
GCCGUAAGUUUCCAAGAUUCAAGAAGUGUAUCAACCCAGGCAAUAUCUCAGGAUAUGGAAGUUUCUGGGUUUAUUUACCCCUCAGUGCCCAGAGUUAAAGUUUCAGAAGA: 0.221
UUCCCUUAUUGCCUUAUUGUCCCUGGCCACAAACUGUUCAUCUCUUCUCUAAUGUGUAAGUGGAGCCUGAACUGCAGGGGCUCUUUAUAUUCCAAACAACCCAGGGUUAG: 0.935
UGACUCUUGAUGGAAAGACUUAAGAAGAUCAAGGUCUCACCAUUUGUCCUCAAUUCGUGUGACCAUAAGAUACUGAUAGCAUUGAGUCUUGAAAUGAUUUAAUAAUAUGA: 0.341
AACCAUUAAAUCUAUUGUUUGGAAAGUCUGCAGUCCUGAGGAGGGCUUGCUCACUGGACACCCACAGAUCUGGCCCUUUGAAAGGCAGCCUUCAGAUGCCCAUCGUGUGA: 0.238
